Results pooled from the literature.
Compare with care: the assays were run in different laboratories. Values joined by “and” are separate records of one study, mostly repeats; a detail may differ. Numbers after ± are the reported error.
Chain of UniProt P04062 (whole entry, unmodified, looked up): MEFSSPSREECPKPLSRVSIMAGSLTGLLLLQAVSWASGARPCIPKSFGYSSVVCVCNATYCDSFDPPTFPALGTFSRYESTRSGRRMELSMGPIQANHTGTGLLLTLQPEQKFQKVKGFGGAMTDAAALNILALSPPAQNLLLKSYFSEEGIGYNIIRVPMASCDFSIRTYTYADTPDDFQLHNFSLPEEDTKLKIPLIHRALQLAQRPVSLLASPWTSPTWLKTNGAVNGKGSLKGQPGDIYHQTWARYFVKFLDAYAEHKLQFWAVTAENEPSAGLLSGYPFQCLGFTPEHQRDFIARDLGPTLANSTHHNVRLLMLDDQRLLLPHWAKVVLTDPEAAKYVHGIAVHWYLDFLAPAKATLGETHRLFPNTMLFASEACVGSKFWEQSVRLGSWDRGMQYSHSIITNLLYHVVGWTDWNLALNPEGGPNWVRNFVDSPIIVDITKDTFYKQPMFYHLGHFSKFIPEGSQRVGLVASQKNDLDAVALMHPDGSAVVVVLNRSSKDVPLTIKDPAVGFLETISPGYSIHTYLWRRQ

O=C1CCC(N2C(=O)c3ccc(N4CCC(C(=O)N5CCC(CCN6CCC(CNC(=O)c7cccc(-c8noc(C(F)(F)F)n8)c7)(c7nc(-c8ccccc8)cs7)CC6)CC5)CC4)cc3C2=O)C(=O)N1 (stereo not drawn) — AUC(0-t) (ICR mouse, plasma; intraperitoneal, 30 mg/kg): 11500 ± 2960 ng·h/mL
COc1cnc2cccc(N3CCc4c(cc(Cn5ccnc5)cc4-c4cn(C)nc4C(F)(F)F)C3=O)c2c1 — AUC(0-t) (male CD-1 mouse, plasma; intraperitoneal, 10 mg/kg): 11300 ng·h/mL
Cn1c2cc([S+](C)[O-])sc2c2cnn(Cc3cccc(N)c3)c(=O)c21 (stereo not drawn) — AUC(0-t) (male BALB/c mouse, plasma; intraperitoneal, 10 mg/kg, single dose): 27000 ng·h/mL
Cc1nn(-c2nc3c(F)cc(F)cc3s2)c(O)c1C(c1ccc(C(F)(F)F)cc1)c1c(C)nn(-c2nc3c(F)cc(F)cc3s2)c1O — AUC(0-t) (ICR mouse, plasma; intraperitoneal, 10 mg/kg): 26000 ng·h/mL and 26400 ng·h/mL and 28700 ng·h/mL
C=C(NC(=O)c1csc(-c2nc3c(cc2O)-c2nc(cs2)C(=O)NC(C(C)O)C(=O)NC(=C(C)OC)c2nc(cs2)C(=O)NC2c4nc(cs4)C(=O)NC(COC(=O)c4c5c6c(cccc6n4O)COC(=O)C(OC4CC(C)(O)C(N(C)C)C(C)O4)C2OC5)c2nc-3cs2)n1)C(N)=O (stereo not drawn) — AUC(0-t) (male cynomolgus monkey, plasma; intravenous, 1 mg/kg, single dose, infusion): 8590 ng·h/mL
O=C(OC(C(F)(F)F)C(F)(F)F)N1CCC(CNS(=O)(=O)c2ccc(Cl)cc2)CC1 — AUC(0-t) (male SCID mouse, plasma; oral, 30 mg/kg): 15500 ng·h/mL
Br.CCCCCCn1c2c(c(=N)c3c1CCC3)CCC2 — relative translation (Trypanosoma cruzi; reporter mRNA translation, inhibitor, refers to: capped polyadenylated Renilla luciferase mRNA; cell-free extract; concentration not given; relative to: control RNA): 94.4%
CCCCCNC(=O)C1C(O)C(O)C(O)C(CO)N1CCCC (stereo not drawn) — IC50 (Lysosomal acid glucosylceramidase (GBA1, Homo sapiens, UniProt P04062, R534H); inhibitor, 4MU-β-D-glucopyranoside; added: 4MU-β-D-glucopyranoside): 25 µM
O=C(c1ccccc1)N1C(c2ccc(OCC3CCN(CCCF)C3)cc2)c2ccc(O)cc2CC12CC2 (stereo not drawn) — AUC(0-t) (C57BL/6J mouse, plasma; intraperitoneal, 25 mg/kg): 7360 ng·h/mL and 9410 ng·h/mL
Cc1cc(NC(=O)[C@H](O)c2cc(F)cc(F)c2)ccc1-c1cnc(N)c(C(=O)NC(C)C)c1 — AUC(0-t) (female nude mouse, plasma; oral, 10 mg/kg, single dose): 5260 ng·h/mL
OC1(C(F)(F)F)CCN(c2nc(Nc3ccnc(C(F)(F)F)c3)nc(-c3cccc(C(F)(F)F)n3)n2)C1 (stereo not drawn) — AUC(0-t) (monkey, blood; oral, 3 mg/kg): 29100 ± 2820 ng·h/mL
CN1CCc2c(sc3c2c(=O)n(-c2ccccc2)c2nnc(SCc4ccccc4)n32)C1 — relative translation (Trypanosoma cruzi; reporter mRNA translation, inhibitor, refers to: capped polyadenylated Renilla luciferase mRNA; cell-free extract; concentration not given; relative to: control RNA): 103%
